# Measurements from different studies.
# Each numbered part is a random draw from the data of one study; scales do not carry over between parts. Numbers after ± are the reported error.

# Sample 1
# Target: Replicase polyprotein 1ab, polymerase (rep, Severe acute respiratory syndrome coronavirus 2, UniProt P0DTD1)
# Read-out: enzyme activity
# Action: inhibitor
# Concentration: 20 µM
SMILES,inhibition
CCN(CC)C(=O)Nc1ccc(OCC(O)CNC(C)(C)C)c(C(C)=O)c1 (centres unmarked),-2.2%
CC(C(=O)O)c1ccc2c(c1)CC(=O)c1ccccc1S2 (centres unmarked),-0.77%
NS(=O)(=O)c1cc(Cl)c(Cl)c(S(N)(=O)=O)c1,-1.32%
O=C(NNc1ccccc1)c1ccncc1,-3.84%
CCc1c(C(=O)Nc2cc(S(=O)(=O)N(CC)CC)ccc2O)[nH]c(C)c1C(C)=O,2.12%
C=CC(=O)N1CCC(Oc2cc3c(Nc4ccc(Cl)c(Cl)c4F)ncnc3cc2OC)CC1,0.12%
CN1CCN(c2nc(C3=C(c4c[nH]c5ccccc45)C(=O)NC3=O)c3ccccc3n2)CC1,0.33%
CCc1c(O)cc(O)c(C(=O)c2ccc(OCCN3CCOCC3)c(OC)c2)c1CC(=O)N(CCOC)CCOC,-2.47%
OC(CN1CCN(c2cccc(Cl)c2)CC1)C(c1ccccc1)c1ccccc1 (centres unmarked),-6.03%
O=C(O)c1nn(Cc2ccc(Cl)cc2Cl)c2ccccc12,1.29%
c1cc(Nc2cc(C3CC3)[nH]n2)nc(Nc2ccc3nc[nH]c3c2)n1,-2.65%
CC(C)CNc1ccnc(NCc2csc(-c3ccccc3)n2)n1,32.7%
COc1ccc(C(C)(C)C)cc1CN[C@H]1C2CCN(CC2)[C@H]1C(c1ccccc1)c1ccccc1,5.11%
CCCCCCCCCCCCCCOC(=O)c1cccnc1,0.28%
COCC(O)Cn1ccnc1[N+](=O)[O-] (centres unmarked),-2.56%
O=c1[nH]c(CCl)nc2sc3c(c12)CCCC3,-8.45%
CCO[C@@H](Cc1ccc(OCCc2ccc(OS(C)(=O)=O)cc2)cc1)C(=O)O,12.2%
NC(=O)[C@@H](CCC(F)(F)F)N(Cc1ccc(-c2ncon2)cc1F)S(=O)(=O)c1ccc(Cl)cc1,3.97%
CCN1CCCC1CNC(=O)c1cc(S(=O)(=O)CC)c(N)cc1OC (centres unmarked),3.15%
CC(C)(C)C(=O)OCOC(=O)[C@@H]1N2C(=O)[C@@H](/N=C/N3CCCCCC3)[C@H]2SC1(C)C,3.1%
CCc1ccc(OCc2ccccc2C(=O)Nc2ccc3nc(C)cc(N)c3c2)cc1,0.91%
Oc1ccc(OCc2ccccc2)cc1,-3.93%
C[C@@H](O)[C@H]1C(=O)N2C(C(=O)O)=C(SCCNC=N)C[C@H]12,-10.1%
COc1ccc(CCC(=O)c2c(O)cc(O[C@@H]3O[C@H](CO)[C@@H](O)[C@H](O)[C@H]3O[C@@H]3O[C@@H](C)[C@H](O)[C@@H](O)[C@H]3O)cc2O)cc1O,-9.64%
O=C1N[C@H](C(=O)O)CS1,0.88%

# Sample 2
# Target: Replicase polyprotein 1ab, main protease (rep, Severe acute respiratory syndrome coronavirus 2, UniProt P0DTD1)
# Read-out: enzyme activity
# Action: inhibitor
# Setting: no DTT
SMILES,IC50
O=C(O)c1c(Cl)c(Cl)c(Cl)c(Cl)c1-c1c2cc(I)c(=O)c(I)c-2oc2c(I)c(O)c(I)cc12,> 20 µM
COc1ccc2[nH]c([S+]([O-])Cc3ncc(C)c(OC)c3C)nc2n1 (centres unmarked),1 µM
COC(=O)C1=C(C)NC(C)=C(C(=O)OC)C1c1ccccc1[N+](=O)[O-],6.6 µM

# Single results of other studies
# nanI: Sialidase (nanI, Clostridium perfringens, UniProt A0A0H2YQR1)
SMILES,tested on,test,test system,setting,scale,measurement,result
Cc1cccc(C)c1OCC(=O)N[C@@H](Cc1ccccc1)[C@@H](O)C[C@H](Cc1ccccc1)NC(=O)[C@H](C(C)C)N1CCCNC1=O,SARS-CoV-2,"viral replication, high-content imaging screen",,cell-based,,EC50,15.7 µM
C=CCN1CC[C@@]2(C)c3cc(O)ccc3C[C@@H]1[C@@H]2C,SARS-CoV-2,"viral replication, RT-qPCR",A549 expressing ACE2,,,IC50,> 10 µM
CC(=O)O[C@]1(C(C)=O)CC[C@H]2[C@@H]3CCC4=CC(=O)CCC4=C3[C@@H](c3ccc(N(C)C)cc3)C[C@@]21C,HEK-293T,pseudovirus infection,VSV pseudotyped with SARS-CoV-2 spike,"10 µM, 16 h",baseline: vehicle-treated,GFP-positive cells,92.3%
CC(C)/N=c1\cc2n(-c3ccc(Cl)cc3)c3ccccc3nc-2cc1Nc1ccc(Cl)cc1,SARS-CoV-2,"viral replication, inhibitor","Vero E6, USA-WA1/2020",24 h,,EC90,0.809 µM
CCC(CC)COC(=O)[C@H](C)N[P@](=O)(OC[C@H]1O[C@@](C#N)(c2ccc3c(N)ncnn23)[C@H](O)[C@@H]1O)Oc1ccccc1,A549-hACE2-TMPRSS2,,,24 h,,CC50,> 1 µM
CCCCN(CCCC)CCCNC(=O)c1ccc2nc(N3CCCCC3)sc2c1,SARS-CoV-2,"cytopathic effect, cell-based CPE",USA_WA1/2020,,,AC50,14.1 µM
CCOC(=O)[C@H]1O[C@@H]1C(=O)N[C@@H](CC(C)C)C(=O)NCCC(C)C,SARS-CoV-2,"viral replication, high-content imaging screen",,cell-based,,EC50,85.1 µM
Cc1cncc(C(=O)N2CCC(=C3c4ccccc4CCc4ccccc43)CC2)c1,SARS-CoV-2,viral replication,USA-WA1/2020,24 h,,EC50,0.2 µM
CC1=C2CC(C(=O)N[C@@H]3CN(C(=O)c4ccc5ccnn5c4)Cc4nccn4C3)=CN=C2NN1,"Replicase polyprotein 1ab, main protease (rep, Severe acute respiratory syndrome coronavirus 2, UniProt P0DTD1)","enzyme activity, inhibitor",,"5 µM, run 1",,inhibition,11.9%
CC(=O)N(C)[C@H]1[C@H]([C@H](O)[C@H](O)CO)OC(C(=O)O)=C[C@@H]1O,nanI,"enzyme activity, inhibitor",,,,IC50,> 500 µM
Cn1cnc(Cn2c(=O)[nH]/c(=N\c3cc4cn(C)nc4cc3Cl)n(Cc3cc(F)c(F)cc3F)c2=O)n1,,,"human, moderate renal impairment","oral, 375 mg",,"anaemia TEAE, Moderate severity",0%
CCc1c(C(=O)C(N)=O)c2c(OCC(=O)O)cccc2n1Cc1ccccc1,C2C12,,,"10 µM, added: KA venom",baseline: venom alone,viability difference,20.8%
CN1CCN(C2Cc3ccccc3Sc3ccc(Cl)cc32)CC1 (centres unmarked),HeLa,Ebola VLP entry,,,,IC50,7.69 µM
CNC(=O)[C@@H](NC(=O)[C@H](CC(C)C)[C@H](O)C(=O)NO)C(C)(C)C,C2C12,,,"1 µM, added: KL venom",baseline: venom alone,viability difference,5.99%
O=c1cc(-c2ccc(O)c(O)c2)oc2cc(O)cc(O)c12,"Replicase polyprotein 1ab, nsp14 N7-methyltransferase (rep, Severe acute respiratory syndrome coronavirus 2, UniProt P0DTD1)","N7-methyltransferase activity, inhibitor, Py-FLINT",,,,Hill slope,1.03 ± 0.12
CCN(CC)CCOC(=O)C(O)(c1ccccc1)c1ccccc1,SARS-CoV-2,viral replication,A549 expressing ACE2,inactive set pIC50 4,,IC50,> 10 µM
Cc1cn([C@H]2C[C@H](N=[N+]=[N-])[C@@H](CO)O2)c(=O)[nH]c1=O,HIV-1,viral replication,"human PBMC, subtype A 92RW020, CCR5-tropic clinical isolate",,,EC50,0.00143 ± 0.00093 µM
CCOC(=O)Nc1ccc(NCc2ccc(F)cc2)cc1N,"Kcnq5 (Rattus norvegicus, UniProt F1LY25)",whole-cell patch clamp,rat calyx of Held neurons,5 to 10 µM,,outward K+ current increase,41 ± 4%
CC(NC(=O)C(Cc1ccccc1)NC(=O)OCc1ccccc1)C(=O)CF (centres unmarked),SARS-CoV-2,viral replication,Huh-7,48 h,,EC50,9.61 µM
CN(O)C(=O)COC(c1ccc(F)cc1F)P(=O)(O)O (centres unmarked),Yersinia pestis,,A1122,24 h,,MIC,> 512 µg/mL
CCCCCc1cn([C@H]2[C@H]([C@H](O)[C@H](O)CO)OC(C(=O)O)=C[C@@H]2O)nn1,nanI,"enzyme activity, inhibitor",,,,IC50,> 500 µM
CCNC/C=C\CNCCCCNCCCCNC/C=C\CNCC,SARS-CoV-2,"viral replication, inhibitor","Vero E6, USA-WA1/2020",24 h,,EC90,~0.304 µM

# Some of these lines once more (sample 2):
SMILES,IC50
COC(=O)C1=C(C)NC(C)=C(C(=O)OC)C1c1ccccc1[N+](=O)[O-],6.6 µM
COc1ccc2[nH]c([S+]([O-])Cc3ncc(C)c(OC)c3C)nc2n1 (centres unmarked),1 µM
O=C(O)c1c(Cl)c(Cl)c(Cl)c(Cl)c1-c1c2cc(I)c(=O)c(I)c-2oc2c(I)c(O)c(I)cc12,> 20 µM
